Measured values from different studies.
± gives the spread as reported.

FC(F)(F)Oc1ccc(-c2cnc3cc(Cl)ccc3c2Nc2ccc(N3CCOCC3)cc2)cc1 — IC50 (Plasmodium falciparum; parasite growth, SYBR Green; DD2; 72 h, drug-resistant strain, blood stage): ≥ 0.25 µM
COc1ccccc1C(=O)Nc1ccccc1OCc1ccc([N+](=O)[O-])cc1 — IC50 (Human immunodeficiency virus 1; viral replication; MT4; 7 days): 26.6 µM
O=C1CSC(=S)N1/N=C/c1cn(Cc2ccccc2)c2ccc([N+](=O)[O-])cc12 — IC50 (Trypanosoma congolense; trypomastigotes, IL3000): > 60 µM
O=c1[nH]c2c([N+](=O)[O-])cccc2cc1-c1ccccc1 — IC50 (Trypanosoma brucei; parasite growth, resazurin; 74 h, trypomastigote): 4.7 µM
CCCC(CCC)C(=O)O — IC50 (Lucilia cuprina; larval weight gain; LS strain, larvae on impregnated cotton wool; 24 h): > 1000 µg
5′-deoxy-5′-Pro-DADMe-ImmA — IC50 (Campylobacter jejuni; colony formation; Mueller-Hinton agar; 6 days): 3.1 ± 0.7 µM
COc1ccccc1NC(=O)c1ccccc1Oc1ccc([N+](=O)[O-])cc1 — IC50 (Human immunodeficiency virus 1; viral replication; MT4; 7 days): 15.2 µM
CCN1CCN(c2ccc(Nc3ccnc4cc(Cl)ccc34)cc2)CC1 — IC50 (Plasmodium falciparum; parasite growth, SYBR Green; D6; 72 h, blood stage): 0.01 µM
O=C(O)c1cccc(-c2cc3cccc([N+](=O)[O-])c3[nH]c2=O)c1 — IC50 (Trypanosoma brucei; parasite growth, resazurin; 74 h, trypomastigote): 7.5 µM
C#Cc1cccc(Nc2ncnc3cc(OC)c(OCCCCCCC(=O)NO)cc23)c1 — IC50 (Lucilia cuprina; larval weight gain; LS strain, larvae on impregnated cotton wool; 24 h): > 1000 µg
CS(=O)(=O)c1ccc(-c2cnc(N)c(-c3ccc(C(F)(F)F)nc3)c2)cc1 — IC50 (Plasmodium cynomolgi; schizont (large EEF) growth; primary rhesus hepatocytes; day 4, compound added at 96 h): 1 µM
CCN1CCN(c2ccc(Nc3ccnc4cc(C(F)(F)F)ccc34)cc2)CC1 — IC50 (Plasmodium falciparum; parasite growth, SYBR Green; D6; 72 h, blood stage): 0.015 µM
Cc1cc(C)n2c1C=C1C=CC(CCC(=O)NCCNC(=O)CCc3ccccc3)=[N+]1[B-]2(F)F — IC50 (Trypanosoma brucei; parasite growth, ATP luminescence; 48 h): > 50 µM
Clc1ccc2c(Nc3ccc(N4CCCCC4)cc3)ccnc2c1 — IC50 (Plasmodium falciparum; parasite growth, SYBR Green; DD2; 72 h, drug-resistant strain, blood stage): 0.2 µM
O=C1CSC(=S)N1/N=C/c1cn(Cc2ccc(F)cc2)c2ccc([N+](=O)[O-])cc12 — IC50 (Trypanosoma congolense; trypomastigotes, IL3000): > 58 µM
CCCCN(Cc1ccc(C(=O)NO)cc1)C(=O)Nc1ccccc1 — IC50 (Lucilia cuprina; larval weight gain; LS strain, larvae on impregnated cotton wool; 24 h): 137 µg
C=C1C[C@@]23CC[C@H]4[C@@](C)(CCC[C@@]4(C)C(=O)O)[C@@H]2CC[C@@H]1C3 — IC50 (Leishmania amazonensis; 72 h, pH 4.6, axenic amastigotes): 4 µg/mL
O=[N+]([O-])c1ccc2[nH]ccc2c1 — IC50 (Leishmania major; parasite growth, resazurin; THP-1; 72 h, intracellular, amastigote): > 10 µM
COc1ccccc1C(=O)Nc1ccccc1Oc1ccc(OC(C)=O)cc1 — IC50 (Human immunodeficiency virus 1; viral replication; MT4; 7 days): > 100 µM
Clc1ccc2c(Nc3ccc(N4CCNCC4)cc3)ccnc2c1 — IC50 (Plasmodium falciparum; parasite growth, SYBR Green; D6; 72 h, blood stage): 0.051 µM
O=C(/C=C/c1cccc(S(=O)(=O)Nc2ccccc2)c1)NO — IC50 (Lucilia cuprina; larval weight gain; LS strain, larvae on impregnated cotton wool; 24 h): 740 µg
O=C(Nc1ccc2c(c1)OCO2)c1ccccc1Sc1ccc([N+](=O)[O-])cc1Cl — IC50 (Human immunodeficiency virus 1; viral replication; MT4; 7 days): 10 µM
O=c1c(O)c(-c2cc(O)c(O)c(O)c2)oc2cc(O)cc(O)c12 — IC50 (human alphaherpesvirus 2; viral replication; HeLa, 333; 24 h): 2.1 ± 0.3 µM
COc1nc2c([N+](=O)[O-])cccc2cc1-c1ccc(C(=O)O)cc1 — IC50 (Trypanosoma brucei; parasite growth, resazurin; 74 h, trypomastigote): 2.2 µM
Nc1ccccc1NC(=O)c1ccc(CNc2nccc(-c3cccnc3)n2)cc1 — IC50 (Lucilia cuprina; larval weight gain; LS strain, larvae on impregnated cotton wool; 24 h): > 1000 µg
O=C1CSC(=S)N1/N=C/c1c[nH]c2ccc([N+](=O)[O-])cc12 — IC50 (Leishmania major; parasite growth, resazurin; THP-1; 72 h, intracellular, amastigote): > 10 µM
C[C@@H]1[C@H](O)[C@@H](C)/C=C/C=C/C=C/C=C/C=C/C=C/C=C/[C@H](O[C@@H]2O[C@H](C)[C@@H](O)[C@H](N)[C@@H]2O)C[C@@H]2O[C@](O)(C[C@@H](O)C[C@@H](O)[C@H](O)CC[C@@H](O)C[C@@H](O)CC(=O)O[C@H]1C)C[C@H](O)[C@H]2C(=O)O — IC50 (Leishmania amazonensis; parasite growth, imaging; mouse Peritoneal macrophage; 48 h, intracellular, amastigote): 0.036 µM
C#CCn1cc(/C=N/N2C(=O)CSC2=S)c2cc([N+](=O)[O-])ccc21 — IC50 (Leishmania major; parasite growth, resazurin; THP-1; 72 h, intracellular, amastigote): 8.6 µM
CCN(CC)Cc1ccc2cc(COC(=O)Nc3ccc(C(=O)NO)cc3)ccc2c1 — IC50 (Lucilia cuprina; larval weight gain; LS strain, larvae on impregnated cotton wool; 24 h): 477 µg
C#CCn1cc(/C=C2\SC(=S)NC2=O)c2cc([N+](=O)[O-])ccc21 — IC50 (Leishmania major; parasite growth, resazurin; THP-1; 72 h, intracellular, amastigote): > 10 µM
COc1ccccc1NC(=O)c1ccccc1Oc1ccc(N)cc1 — IC50 (Human immunodeficiency virus 1; viral replication; MT4; 7 days): 72.2 µM
O=Cc1c[nH]c2ccc([N+](=O)[O-])cc12 — IC50 (Leishmania major; parasite growth, resazurin; THP-1; 24 h, intracellular, amastigote): > 10 µM
O=[N+]([O-])c1ccc(/C=N/N=C/c2ccccc2)s1 — IC50 (Leishmania major; parasite growth; intracellular, amastigote): > 7 µM
CC(C)CN1CCN(c2ccc(Nc3ccnc4cc(Cl)ccc34)cc2)CC1 — IC50 (Plasmodium falciparum; parasite growth, SYBR Green; DD2; 72 h, drug-resistant strain, blood stage): 0.012 µM
C#CCn1cc(C=O)c2cc([N+](=O)[O-])ccc21 — IC50 (Leishmania major; parasite growth, resazurin; THP-1; 72 h, intracellular, amastigote): 2.41 µM

Excerpt of the above:
C#Cc1cccc(Nc2ncnc3cc(OC)c(OCCCCCCC(=O)NO)cc23)c1 — IC50 (Lucilia cuprina; larval weight gain; LS strain, larvae on impregnated cotton wool; 24 h): > 1000 µg
COc1ccccc1NC(=O)c1ccccc1Oc1ccc(N)cc1 — IC50 (Human immunodeficiency virus 1; viral replication; MT4; 7 days): 72.2 µM
O=c1c(O)c(-c2cc(O)c(O)c(O)c2)oc2cc(O)cc(O)c12 — IC50 (human alphaherpesvirus 2; viral replication; HeLa, 333; 24 h): 2.1 ± 0.3 µM
O=C1CSC(=S)N1/N=C/c1cn(Cc2ccccc2)c2ccc([N+](=O)[O-])cc12 — IC50 (Trypanosoma congolense; trypomastigotes, IL3000): > 60 µM
Clc1ccc2c(Nc3ccc(N4CCNCC4)cc3)ccnc2c1 — IC50 (Plasmodium falciparum; parasite growth, SYBR Green; D6; 72 h, blood stage): 0.051 µM
CCCC(CCC)C(=O)O — IC50 (Lucilia cuprina; larval weight gain; LS strain, larvae on impregnated cotton wool; 24 h): > 1000 µg
